Measured values gathered from unrelated publications.
A part holds a random share of what one study measured. Changes are numbered by the printed parent chain.

Study 1
Target: Ras GTPase-activating protein-binding protein 1, C-terminal RGG region (G3BP1, Homo sapiens, UniProt Q13283)
UniProt Q13283, sequence (whole entry, looked up): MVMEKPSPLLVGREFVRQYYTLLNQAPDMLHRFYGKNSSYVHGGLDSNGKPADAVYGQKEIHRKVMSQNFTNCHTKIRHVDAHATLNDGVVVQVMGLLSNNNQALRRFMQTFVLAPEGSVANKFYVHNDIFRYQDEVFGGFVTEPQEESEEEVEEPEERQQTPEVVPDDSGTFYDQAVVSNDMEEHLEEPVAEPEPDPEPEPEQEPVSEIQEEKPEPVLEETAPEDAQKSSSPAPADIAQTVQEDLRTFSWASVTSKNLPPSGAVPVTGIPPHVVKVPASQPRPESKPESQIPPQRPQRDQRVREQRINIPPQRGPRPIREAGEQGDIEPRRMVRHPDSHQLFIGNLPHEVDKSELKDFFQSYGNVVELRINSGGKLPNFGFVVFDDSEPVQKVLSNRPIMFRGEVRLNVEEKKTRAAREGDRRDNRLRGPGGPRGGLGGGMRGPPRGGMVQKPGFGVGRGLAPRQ
Technique: RNA Bind-n-Seq
Form: RNA
Medium: in vitro
Tested at: 1 µM
Setting: whole 134-nt RNA, ends assumed
With: 150 mM KCl
Relative to: input library
Reading: higher = stronger binding
Measurement: log2 enrichment
All sequences stand within: GGGAGUUCUACAGUCCGACGAUC … UGGAAUUCUCGGGUGUCAAGG
UGGGAGGUGGAUUUUGUUUAUUUUUUUAGCUCAUUUCCAGGGGUGGGAAUUUGUUUUUAAUAUGUGUCAUGAAUAAAGUUGUUUUUGAAA: 2.81
UAACUUUAGAGGAGGAUCUGGUGGAUAUGGCAGUGGACGUGGAUUUGGGGAUGGCUAUAAUGGGUAUGGAGGAGGACCUGGAGGUGGCAA: -1.46
UGGCUAGUCAGCAGCGGAUGUCCCCUCCAGGUUAAGAAAGCCGAACCAGAGCCGAUGCGAGAGGAGGAGAAAAUGAUUCCUCCUACGAAA: -0.813
UCAAGUCCUGUGCUACACAUCGUAUGUACCGAAUCGGAAAGGAGGUUUUUUUGGAAAGUAUUAUGUUACGCCGUUCGGAUCUGCACUUCC: -1.23
AAGUCCUGUGCUACACAUCGUAUGUACCGAAUCGGGGAAAAAGGGGUGGGGAGGGGAAAGUAUUAUGUUACGCCGUUCGGAUCUGCACUU: 1.81
UCCUGUGCUACACAUCGUAUGUACCGAAUCGGCCCCCCGGGCCCCCCGGGGCCCCCCGGAAAGUAUUAUGUUACGCCGUUCGGAUCUGCA: -1.27
UCCUGUGCUACACAUCGUAUGUACCGAAUCGGGGAAAGGGGAAAAAGGGGUUUUUGGGGAAAGUAUUAUGUUACGCCGUUCGGAUCUGCA: 2.38
CACAGACAACACGCACCCACACAGACACAGAGGGAAGGGGUUGGGAUGGGGACAGGGUGCAAAACAGGGCGGGGUAGGACCCCAGCCCCU: -0.267

Study 2
Target: Interferon regulatory factor 7, full length, phosphomimetic (IRF7, Homo sapiens, UniProt Q92985, residues 1-503, S101K/S471D/S472D/S475D/S476D/S477D/S483D/S484D/S487D)
Technique: protein-binding microarray
Form: double-stranded DNA, one strand shown
Medium: in vitro
Tested at: 250 nM
Setting: 60-bp whole probe
With: salmon DNA 0.4 mg/ml
Relative to: random background probes
Reading: higher = stronger binding
Measurement: log fluorescence
All sequences stand within: GCCTAGCAC … GTCTTGATTCGCTTGACGCTGCTG
Residues (chain): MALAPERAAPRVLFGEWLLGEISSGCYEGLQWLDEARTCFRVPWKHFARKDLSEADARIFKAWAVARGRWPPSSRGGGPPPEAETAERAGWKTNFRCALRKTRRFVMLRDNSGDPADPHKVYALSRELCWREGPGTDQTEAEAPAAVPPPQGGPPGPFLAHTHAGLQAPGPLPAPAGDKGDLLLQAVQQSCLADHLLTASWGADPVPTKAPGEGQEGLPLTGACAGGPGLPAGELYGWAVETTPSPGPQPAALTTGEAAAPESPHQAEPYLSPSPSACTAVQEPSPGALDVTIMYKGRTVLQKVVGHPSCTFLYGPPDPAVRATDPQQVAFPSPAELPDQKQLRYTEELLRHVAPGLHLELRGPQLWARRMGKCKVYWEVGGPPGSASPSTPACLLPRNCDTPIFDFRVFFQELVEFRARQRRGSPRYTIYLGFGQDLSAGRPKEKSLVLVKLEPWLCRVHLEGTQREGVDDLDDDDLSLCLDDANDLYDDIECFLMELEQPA
GAGGGTATCGGACTGGGGACGTGCTAG: -0.604 z-score
TTAGGTTCCTGTTTCGGTTAGTGCTAG: 6.92 z-score
TTAGGTTTCCTACTGCTTTTGTGCTAG: 0.912 z-score
GACGGTTTCGACTTTGGGGACGTGCTA: 9.72 z-score
TTAGACCTCAGTTTCGATTAGTGCTAG: 8.6 z-score
GACGGTTCGGGTTTCGGGACGTGCTAG: 2.99 z-score
GACGGTTTCGACTATGGGGACGTGCTA: 4.63 z-score
TCAATTATTGTTTCCTCACTGTGCTAG: 1.3 z-score

Study 3
Target: CRIPT, C-terminal peptide
Technique: DHFR complementation, deep sequencing
Medium: yeast
Setting: single substitutions, model-inferred values
Relative to: wild type
Reading: higher = weaker binding
Measurement: binding free energy change
Starting sequence: ERBIN, PDZ domain 1 (human); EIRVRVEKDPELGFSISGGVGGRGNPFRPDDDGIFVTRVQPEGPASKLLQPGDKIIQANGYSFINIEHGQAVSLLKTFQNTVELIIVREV; partner TKNYKQTSV
K8N: 1.08 kcal/mol
L84C: 0.289 kcal/mol
K47L: 0.112 kcal/mol
D9Q: -0.0565 kcal/mol
L84E: 1 kcal/mol
A58D: 0.317 kcal/mol
R5T: 0.0605 kcal/mol
L84F: -0.496 kcal/mol

Other studies, line by line
Starting sequence: viral docking peptide; TSVRRALFTGGSD
TSVVRALFTGGSD [R4V]  normalised enrichment score (CCND3, cyclin fold, Cln2 fusion (human); yeast growth competition, sequencing; yeast; weak parent motif; relative to: not given, higher = stronger binding): -0.164

Excerpt of the above (study 2):
TTAGGTTTCCTACTGCTTTTGTGCTAG: 0.912 z-score
GACGGTTTCGACTTTGGGGACGTGCTA: 9.72 z-score
TTAGACCTCAGTTTCGATTAGTGCTAG: 8.6 z-score
